Results of several laboratories.
Numbered parts are unrelated; each lists some results of a single study.
UniProt Q9HAZ1, sequence (whole entry, looked up): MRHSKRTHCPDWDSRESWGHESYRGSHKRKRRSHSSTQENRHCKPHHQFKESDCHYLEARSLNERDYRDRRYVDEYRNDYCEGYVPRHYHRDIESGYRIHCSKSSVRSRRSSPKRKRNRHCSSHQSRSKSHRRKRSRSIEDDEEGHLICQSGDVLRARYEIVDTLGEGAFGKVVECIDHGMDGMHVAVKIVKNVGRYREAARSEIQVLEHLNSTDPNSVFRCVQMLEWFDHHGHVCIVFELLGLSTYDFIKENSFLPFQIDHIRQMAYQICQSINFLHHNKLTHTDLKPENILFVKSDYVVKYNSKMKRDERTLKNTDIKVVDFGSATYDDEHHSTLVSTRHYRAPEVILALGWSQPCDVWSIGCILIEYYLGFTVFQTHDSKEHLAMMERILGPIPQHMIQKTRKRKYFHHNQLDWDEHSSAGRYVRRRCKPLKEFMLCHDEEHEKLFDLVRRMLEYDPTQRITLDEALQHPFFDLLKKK
UniProt P51956, sequence (whole entry, looked up): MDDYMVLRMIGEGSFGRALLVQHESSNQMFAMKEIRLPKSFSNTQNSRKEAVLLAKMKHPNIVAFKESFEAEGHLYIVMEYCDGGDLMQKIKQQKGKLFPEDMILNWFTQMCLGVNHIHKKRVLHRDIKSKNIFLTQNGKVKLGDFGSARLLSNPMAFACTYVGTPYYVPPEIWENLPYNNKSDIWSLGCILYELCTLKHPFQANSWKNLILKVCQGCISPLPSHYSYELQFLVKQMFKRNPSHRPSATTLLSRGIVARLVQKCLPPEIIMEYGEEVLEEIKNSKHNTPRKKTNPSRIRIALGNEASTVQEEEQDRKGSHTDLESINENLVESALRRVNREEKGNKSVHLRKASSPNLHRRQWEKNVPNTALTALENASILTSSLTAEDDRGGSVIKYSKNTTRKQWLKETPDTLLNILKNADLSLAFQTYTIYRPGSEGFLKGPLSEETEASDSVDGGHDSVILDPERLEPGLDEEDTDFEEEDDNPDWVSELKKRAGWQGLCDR
UniProt Q86UE8, sequence (whole entry, looked up): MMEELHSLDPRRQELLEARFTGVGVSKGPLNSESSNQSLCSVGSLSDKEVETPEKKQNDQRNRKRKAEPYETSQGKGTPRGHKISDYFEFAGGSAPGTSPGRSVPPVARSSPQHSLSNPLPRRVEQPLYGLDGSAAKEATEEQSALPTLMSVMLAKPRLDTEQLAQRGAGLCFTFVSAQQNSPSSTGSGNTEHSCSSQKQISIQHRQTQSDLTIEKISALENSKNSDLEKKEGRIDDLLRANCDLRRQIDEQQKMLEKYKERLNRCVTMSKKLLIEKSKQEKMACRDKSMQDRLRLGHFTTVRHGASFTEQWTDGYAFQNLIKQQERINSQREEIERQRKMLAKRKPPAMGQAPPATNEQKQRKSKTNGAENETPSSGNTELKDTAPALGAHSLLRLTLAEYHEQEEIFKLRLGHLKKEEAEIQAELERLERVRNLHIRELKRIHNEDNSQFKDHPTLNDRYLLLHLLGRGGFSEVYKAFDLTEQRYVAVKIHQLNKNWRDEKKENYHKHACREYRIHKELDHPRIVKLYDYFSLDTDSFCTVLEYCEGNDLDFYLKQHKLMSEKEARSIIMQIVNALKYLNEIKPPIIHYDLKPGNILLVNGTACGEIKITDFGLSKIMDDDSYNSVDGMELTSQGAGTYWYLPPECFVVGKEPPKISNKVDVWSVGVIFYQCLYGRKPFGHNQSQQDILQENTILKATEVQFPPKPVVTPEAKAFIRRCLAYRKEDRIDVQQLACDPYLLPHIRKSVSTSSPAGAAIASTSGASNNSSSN
UniProt P31751, sequence (whole entry, looked up): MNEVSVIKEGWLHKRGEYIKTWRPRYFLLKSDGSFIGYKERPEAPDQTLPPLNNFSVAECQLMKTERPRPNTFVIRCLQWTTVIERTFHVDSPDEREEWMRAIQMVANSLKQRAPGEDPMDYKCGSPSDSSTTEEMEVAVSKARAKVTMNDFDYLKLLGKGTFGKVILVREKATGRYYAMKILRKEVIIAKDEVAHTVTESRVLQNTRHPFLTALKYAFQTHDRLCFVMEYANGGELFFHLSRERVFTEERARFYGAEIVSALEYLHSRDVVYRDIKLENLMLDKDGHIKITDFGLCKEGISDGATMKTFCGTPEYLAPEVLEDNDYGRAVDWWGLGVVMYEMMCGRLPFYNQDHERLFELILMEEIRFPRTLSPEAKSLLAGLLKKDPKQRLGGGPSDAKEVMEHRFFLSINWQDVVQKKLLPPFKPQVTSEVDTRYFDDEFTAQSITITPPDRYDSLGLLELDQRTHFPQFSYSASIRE
UniProt Q8WXR4, sequence (whole entry, looked up): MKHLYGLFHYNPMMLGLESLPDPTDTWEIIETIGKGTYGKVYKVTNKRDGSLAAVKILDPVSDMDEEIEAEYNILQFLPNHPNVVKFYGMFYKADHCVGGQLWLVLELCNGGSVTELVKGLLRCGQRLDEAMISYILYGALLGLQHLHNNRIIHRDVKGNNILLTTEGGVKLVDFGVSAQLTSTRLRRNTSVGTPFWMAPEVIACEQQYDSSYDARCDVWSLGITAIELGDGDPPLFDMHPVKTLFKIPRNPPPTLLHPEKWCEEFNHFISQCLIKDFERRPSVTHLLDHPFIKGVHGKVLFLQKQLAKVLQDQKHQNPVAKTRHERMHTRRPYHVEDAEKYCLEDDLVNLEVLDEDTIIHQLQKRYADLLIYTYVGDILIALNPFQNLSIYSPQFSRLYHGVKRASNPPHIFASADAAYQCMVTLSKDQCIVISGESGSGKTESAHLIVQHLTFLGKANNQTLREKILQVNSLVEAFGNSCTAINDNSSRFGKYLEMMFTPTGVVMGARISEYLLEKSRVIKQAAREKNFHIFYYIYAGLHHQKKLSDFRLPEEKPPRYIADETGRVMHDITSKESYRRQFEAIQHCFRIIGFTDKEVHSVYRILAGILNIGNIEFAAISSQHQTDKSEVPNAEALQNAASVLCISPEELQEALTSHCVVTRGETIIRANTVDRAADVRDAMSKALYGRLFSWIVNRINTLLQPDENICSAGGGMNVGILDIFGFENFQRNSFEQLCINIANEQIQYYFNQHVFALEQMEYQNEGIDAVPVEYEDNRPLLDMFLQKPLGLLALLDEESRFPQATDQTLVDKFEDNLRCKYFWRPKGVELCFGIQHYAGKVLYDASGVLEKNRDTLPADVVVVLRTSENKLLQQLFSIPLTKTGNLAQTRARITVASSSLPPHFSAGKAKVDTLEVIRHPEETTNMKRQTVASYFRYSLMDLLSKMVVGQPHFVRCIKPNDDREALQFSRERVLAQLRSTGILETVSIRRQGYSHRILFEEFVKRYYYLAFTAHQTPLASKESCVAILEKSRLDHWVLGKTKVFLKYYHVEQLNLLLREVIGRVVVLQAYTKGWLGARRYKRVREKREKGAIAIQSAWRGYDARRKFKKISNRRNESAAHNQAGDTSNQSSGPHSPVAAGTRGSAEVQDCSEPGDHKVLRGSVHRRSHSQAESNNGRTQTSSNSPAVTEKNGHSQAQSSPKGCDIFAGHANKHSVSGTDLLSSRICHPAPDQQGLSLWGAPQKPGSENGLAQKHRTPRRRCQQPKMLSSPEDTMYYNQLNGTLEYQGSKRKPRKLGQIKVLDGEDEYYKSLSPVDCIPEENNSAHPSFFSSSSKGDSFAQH
UniProt P06493, sequence (whole entry, looked up): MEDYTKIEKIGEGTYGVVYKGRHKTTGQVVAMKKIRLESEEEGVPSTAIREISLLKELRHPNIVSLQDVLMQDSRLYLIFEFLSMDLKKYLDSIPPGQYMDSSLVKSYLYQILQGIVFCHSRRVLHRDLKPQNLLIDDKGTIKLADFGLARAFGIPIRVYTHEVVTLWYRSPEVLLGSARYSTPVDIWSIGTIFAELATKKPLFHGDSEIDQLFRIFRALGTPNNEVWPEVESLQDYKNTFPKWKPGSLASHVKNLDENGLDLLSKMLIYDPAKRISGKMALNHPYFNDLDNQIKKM

Set 1 — target: His6 tag; method: AlphaScreen counter screen; concentration: concentration not given
SMILES	inhibition [%]
CC(=O)c1cccc(NC=C2C(=O)NC(=O)N(c3ccccc3)C2=O)c1	-3.95
CN1C(=O)NC(=O)C(=CNc2ccc(F)cc2)C1=O	-0.95
COc1ccc(N2C(=O)NC(=O)C(=CNc3cccc(C)c3)C2=O)cc1	1.4

Set 2 — observed: enzyme activity; mode: inhibitor; concentration: 0.5 µM; reference: control
Structure (SMILES): COC[C@H]1OC(=O)c2coc3c2[C@@]1(C)C1=C(C3=O)[C@@H]2CCC(=O)[C@@]2(C)C[C@H]1OC(C)=O
target	remaining activity [%]
ROCK1 (Homo sapiens, UniProt Q13464)	90.7
TLK2 (Homo sapiens, UniProt Q86UE8)	99.5
DDR2 (Homo sapiens, UniProt Q16832)	95.7
AKT2 (Homo sapiens, UniProt P31751)	94.2
PRKG2 (Homo sapiens, UniProt Q13237)	101
MET (Homo sapiens, UniProt P08581)	100
KDR (Homo sapiens, UniProt P35968)	88.4
Cyclin-dependent kinase 1, with cyclin A (CDK1, Homo sapiens, UniProt P06493)	97
MAPK14 (Homo sapiens, UniProt Q16539)	120
CLK4 (Homo sapiens, UniProt Q9HAZ1)	85.4
MAP2K1 (Homo sapiens, UniProt Q02750)	97.3
GRK4 (Homo sapiens, UniProt P32298)	95.3
NEK3 (Homo sapiens, UniProt P51956)	97.9
Myosin-IIIb (MYO3B, Homo sapiens, UniProt Q8WXR4)	86.4

Set 3 — observed: binding; method: phage display NGS; molecule type: peptide; reference: input library
Target: UDP-N-acetylglucosamine--peptide N-acetylglucosaminyltransferase 110 kDa subunit (OGT, Homo sapiens, UniProt O15294)
UniProt O15294, sequence (whole entry, looked up): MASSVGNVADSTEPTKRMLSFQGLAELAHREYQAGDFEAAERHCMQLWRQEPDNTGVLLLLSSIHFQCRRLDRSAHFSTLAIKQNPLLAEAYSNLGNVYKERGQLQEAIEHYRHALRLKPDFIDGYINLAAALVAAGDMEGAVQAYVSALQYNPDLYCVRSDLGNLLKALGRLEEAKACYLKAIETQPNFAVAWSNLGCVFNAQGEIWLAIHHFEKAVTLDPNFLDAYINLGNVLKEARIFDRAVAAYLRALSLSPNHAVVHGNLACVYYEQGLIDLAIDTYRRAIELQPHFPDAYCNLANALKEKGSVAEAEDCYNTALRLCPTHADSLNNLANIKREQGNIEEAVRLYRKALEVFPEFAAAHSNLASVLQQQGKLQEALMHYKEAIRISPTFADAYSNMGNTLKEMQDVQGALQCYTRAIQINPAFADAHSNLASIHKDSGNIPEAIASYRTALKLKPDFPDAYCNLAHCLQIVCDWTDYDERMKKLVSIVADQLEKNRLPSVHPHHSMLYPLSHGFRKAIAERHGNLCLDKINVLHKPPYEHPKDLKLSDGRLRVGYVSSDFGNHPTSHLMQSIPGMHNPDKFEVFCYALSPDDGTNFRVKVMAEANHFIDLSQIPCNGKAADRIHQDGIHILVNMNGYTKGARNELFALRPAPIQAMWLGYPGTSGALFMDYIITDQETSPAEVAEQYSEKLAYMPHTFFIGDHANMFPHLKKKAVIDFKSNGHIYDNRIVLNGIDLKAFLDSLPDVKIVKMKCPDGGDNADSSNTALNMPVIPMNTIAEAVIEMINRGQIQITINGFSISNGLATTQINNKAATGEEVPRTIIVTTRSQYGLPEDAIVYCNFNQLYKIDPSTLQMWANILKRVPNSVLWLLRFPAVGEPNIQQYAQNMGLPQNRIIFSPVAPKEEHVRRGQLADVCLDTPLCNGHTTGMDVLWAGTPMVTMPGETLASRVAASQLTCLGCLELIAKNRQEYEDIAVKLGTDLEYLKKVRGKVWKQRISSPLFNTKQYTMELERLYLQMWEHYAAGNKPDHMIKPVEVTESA
Molecule	minimum log2 enrichment ratio
DHSHFHERMYVRHDI	1.15
NFMPFYPITITAIES	3.83
TIEDHVHHHAHRLDR	2.28
KFTELPMYHDARHHQ	1.86
FHSTMPVYQLKYVN	1.63
SIVYEYKKGQIHNHR	1.75
TMPRDFTPKYQIMVK	4.34
SVMHHHHSATTYLG	2.8

Single results of other studies
Molecule	tested on	assay	conditions	quantity	result
CC(C)=CCOc1c2occc2cc2ccc(=O)oc12	HaCaT	–	100 µM, 18 h	viability	54.9%
SCFD1 (Homo sapiens, UniProt Q8WVM8)	STX18 (Homo sapiens, UniProt Q9P2W9)	cross-linking MS	hits only	interaction screen	cross-linked
C[C@@H]1C[C@@H]([C@H](O)CC2CC(=O)NC(=O)C2)C(=O)[C@@H](C)C1	HaCaT	–	100 µM, 18 h	viability	89.1%

For quick reference, copied from above (set 2):
target	remaining activity [%]
Myosin-IIIb (MYO3B, Homo sapiens, UniProt Q8WXR4)	86.4
NEK3 (Homo sapiens, UniProt P51956)	97.9
Cyclin-dependent kinase 1, with cyclin A (CDK1, Homo sapiens, UniProt P06493)	97
